Measurements gathered from unrelated publications.
Every numbered part comes from another study and shows a few of its results, in no order.

Sample 1 — method: RNA Bind-n-Seq; form: RNA; sample: in vitro; tested at: not given; reference: input RNA pool; reading: higher = stronger binding
Target: RING finger protein unkempt homolog, zinc fingers 1-6, GST-SBP tag (UNK, Homo sapiens, UniProt Q9C0B0, residues 30-357)
UniProt Q9C0B0, sequence (30-357, looked up): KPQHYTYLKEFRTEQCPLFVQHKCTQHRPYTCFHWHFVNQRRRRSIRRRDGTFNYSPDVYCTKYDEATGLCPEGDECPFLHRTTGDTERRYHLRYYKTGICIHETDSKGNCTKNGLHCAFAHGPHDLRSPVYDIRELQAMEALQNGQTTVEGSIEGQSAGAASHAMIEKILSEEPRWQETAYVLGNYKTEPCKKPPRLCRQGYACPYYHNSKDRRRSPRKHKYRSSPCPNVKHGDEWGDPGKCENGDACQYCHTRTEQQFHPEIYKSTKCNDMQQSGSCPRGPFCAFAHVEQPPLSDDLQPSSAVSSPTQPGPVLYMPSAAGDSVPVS
Notes: RNA with constant flanks, human and mouse sites, ends assumed
Constant ends, left off below: GGGAGUUCUACAGUCCGACGAUC … CAACAGAGGAUUGAGCAUCA
Strand | bound/input enrichment [ratio]
AGCACCAGUGCGGCCACCUGUACUCGCAGACACUACGAAAGGUUAAUCCUGCCAUACGAAAGAUUUAUUAAGGGAGAAGAAGAUAAGCCUCUGCCGCCAAUCAAACCUCGGAAACAGGAA | 0.263
UACAUGGUAAAGCAUAAAUCGCACUUGAGAUUCUGAAUUAUUUGGCUCCUCCAUUUCUGGAAAUUGAGACUCAAGCUUUAUGAAUUUAUCAAGAACUUAAAAAUGAAGAAGGUCACAGAU | 0.149
CAUGAAAUGGCUUGGGCAGUGGUCAAUGAAAUUGAAAAACAAUUGAAUGCUAUUCGAGACAAUAUCAAAAUUGGAGAAGAACGUGCUGCAAAACUUGACAGGAAAAUGGAAGAGCAGCAG | 0.292
GCGGUCCCCACGGUCCUGGUAACCCCCCUGGGCGCCCUUGGAGUACCGUUCGGGUCCAUUUUAGCUUCCUAUCUCCUGAAGGAAAAGCUCAACAUCUUGGGCAAGUUGGGGUGCCUGCUA | 0.281
CACUGGAAGUGUGCUUCUAGGCAUAGUCAUUGGUUUUGCAAAAAGAGGGCUCAAAUUUAAAUAGAAAUUUACAGCUAUUUGAAUGGUCAGAUAUACCAAGAAAGAAAAAUAUUUCUGUUC | 0.173
UUAAAAGAAAUUCAAGCCAUGAGUCAGUGCAGCCAUCCCAACGUAGUGACCUAUUACACCUCUUUUGUGGUCAAAGAUGAACUUUGGCUGGUCAUGAAAUUACUAAGUGGAGGUUCAAUG | 0.214
UCCCACUCCUCGGCAGACAUCAACUCCAGUCUUCCUCCGAUGUCCACGUUCCAUCGUAGUGGCACAAACCAUUACAGCACCUCUUCCUGCACACCCCCUGCCAACGGAACAGACAGUAUA | 0.462
CCAGUCAUGAAGAUGGAGCCCCUGAAUAACCUGCAGGUGGCUGUUAAAAACAAUAUUGAUGUCUUCUACUUCAGCUGCCUCAUCCCACUCAAUGUGCUUUUUGUAGAAGAUGGCAAAAUG | 0.143
GAUAUGGAAGAGGAAGCAGAUGAUGGUUCUAAGAUGGGAUCUGAUUUAGUCAGUCAGCAAGACAUCUGUAUAGAUUCUGCUUCAUCCGUGAGAGAGAAUAAGCAACCUGAAGGUUUGGAA | 0.174
AUUAUAAGAGAAACAGAAAAUGAUGACCUUACCAAUGUAAUUCAGAAAAUGAUCUGUGAAUAUAGUGAAGAAGUUACUCCUAUUGCAGUAGAAAUGACACAACAUUUGGCAAUGACAUUU | 0.132
GAAAAUUCAAAGGCUGUAAGCAAAGCUACCACUGACUCAGAUAAAGAAAAACUGAUCAUGCUUGUCAGUGAUUUUUAUUAUGGAAGACAUGAAGGAACUAUUGAGGAAAGCCAGAAGACU | 0.131

Sample 2 — method: protein-binding microarray; form: double-stranded DNA, one strand shown; sample: in vitro; tested at: 2540 nM top; notes: 60-bp whole probe; together with: salmon DNA 0.4 mg/ml; reference: random background probes; reading: higher = stronger binding; constant ends, left off below: GCCTAGCAC … GTCTTGATTCGCTTGACGCTGCTG
Target: Interferon regulatory factor 3, full length, phosphomimetic (IRF3, Homo sapiens, UniProt Q14653, residues 1-427, S386D/S396D/S398D/S402D/T404D/S405D)
UniProt Q14653, sequence (whole entry, unmodified, looked up): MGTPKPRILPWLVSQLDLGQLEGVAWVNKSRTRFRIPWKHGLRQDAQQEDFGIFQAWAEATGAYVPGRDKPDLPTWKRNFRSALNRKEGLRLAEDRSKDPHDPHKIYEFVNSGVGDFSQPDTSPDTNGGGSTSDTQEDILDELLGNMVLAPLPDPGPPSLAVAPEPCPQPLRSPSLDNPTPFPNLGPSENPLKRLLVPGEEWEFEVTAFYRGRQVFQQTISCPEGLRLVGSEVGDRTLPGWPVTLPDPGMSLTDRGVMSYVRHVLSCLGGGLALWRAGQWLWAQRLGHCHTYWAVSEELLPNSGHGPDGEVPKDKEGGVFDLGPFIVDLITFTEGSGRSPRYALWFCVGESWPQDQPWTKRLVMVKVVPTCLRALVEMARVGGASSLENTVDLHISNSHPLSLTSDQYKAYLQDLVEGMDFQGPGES
Strand | fitted relative affinity [z-score]
TTAGGACTGGGGTATCGGTTTGTGCTA | 0.983
GACGATGTCAGTTTCGAGACGTGCTAG | 2.32
TTAGGTTTCAGTTTCGGTTAGTGCTAG | 8.6
TCACTCATGGCTTTGTAACTGTGCTAG | -0.608
TTCCTTATTGCTTCCTCTTTGTGCTAG | 1.77
GACGATATCGGGTTTCGTGACGTGCTA | 0.905
TTAAAACTGGGGACTGGATTAGTGCTA | -0.789
GACGGTTTCCTTATCCTGATGTGCTAG | 7.88
TTAGATATCAGTTTCAATTAGTGCTAG | 2.74
TTAGGTATGGGACTGGGTTAGTGCTAG | -0.757
CAGCACAGCTGACTACAAGCGTGCTAG | -0.887
GACGGACTGGGTATCCGGACGTGCTAG | 0.162
GCAAATATATCAGTGAATTTGTGCTAG | 0.111
GACGGAATGGGTCTCGGGACGTGCTAG | -0.447
TTAGATTTCAGTCTGGATTAGTGCTAG | 1.05
AAATTCTATTCTCTCAATTTGTGCTAG | 2.43
GACGGTTTCTACACTGGGGACGTGCTA | 1.76
GACGATATCGTGTTTCGAGACGTGCTA | 0.934
GACGATCACAGTCTCGAGACGTGCTAG | 0.399
TTAGATATCGGGTCTGGATTAGTGCTA | 0.239
TTAGGACTGGTTCTCGGTTAGTGCTAG | 0.069
TTAGGACTGGGTTTCGGTAAGTGCTAG | 2.16
TTAGGTTGCGGTTTCGGTTAGTGCTAG | 8.25
CACGGTTTCCTTCTCCTGACGTGCTAG | 9.12
TCATATATGAATATATAACTGTGCTAG | 0.717

Sample 3 — method: competition protein-binding microarray; form: double-stranded DNA, one strand shown; sample: in vitro; tested at: 2 µM; together with: Cbf1 competitor, 0.05 µM; reading: higher = stronger binding; constant ends, left off below: … GTCTTGATTCGCTTGACGCTGCTG
Target: Phosphate system positive regulatory protein PHO4, full length, GST-tagged (PHO4, Saccharomyces cerevisiae, UniProt P07270, residues 1-312)
Notes: whole 60-bp probe, lowest competitor level
Construct (chain): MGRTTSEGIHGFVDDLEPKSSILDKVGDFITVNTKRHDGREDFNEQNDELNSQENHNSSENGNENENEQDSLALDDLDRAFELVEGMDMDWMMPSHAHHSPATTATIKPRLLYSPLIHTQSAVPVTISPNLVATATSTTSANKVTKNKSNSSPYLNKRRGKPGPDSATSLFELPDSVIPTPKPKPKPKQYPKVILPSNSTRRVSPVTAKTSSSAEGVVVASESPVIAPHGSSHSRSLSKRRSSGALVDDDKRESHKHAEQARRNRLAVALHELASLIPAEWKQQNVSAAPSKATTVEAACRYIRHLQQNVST
Strand | fluorescence intensity [a.u.]
AAAGCGGTAATTTGACCGGTGGGTGCAGATATCTAT | 3870
GCCCAAAGACCCGGCCACGTTCAGGCCCCATCAATA | 10300
GTCTTGTCTCATTGACTAGTGGGTGTCCCCACTTCA | 4140
CCCATTCAATTCGCTCTCGTGACGGAATCGTCGGGA | 6820
AAAGCGGTAATTTGTCACATTACTTCACATATCTAT | 3780
TTAGAATCGCTTTGTCACGTTTTTTTTTATTTCTTG | 12900
ATGAAGTTATTTCCAATCGTGCCAGTGAGATCCTAG | 6770
CCAAGCCGCCAGCCCCGCGTGCGGCCTGCCGCGAGG | 8960
TATATAGTAGATCAACTCGTGCTTTGCTGGCTATAA | 10800
TCAAGATTGGTGGCGCTCGTGAAATAATGCCATTGC | 4770
GATCTTCTGGGCCGTAGCGTGATGGGGTCTGTAAAT | 5630
TGCGCAACAACTTGTCACTCGACTTTATGTCTAGAA | 3200
TCCAATTATGCGATGCATGTGCCTTCCGTTTAGAGT | 13300
TACTAGTACGTAAACAACGTGGTGAAGTAGAAAAAA | 13100
AAGTGCAGATCGCTGTCTTGCTCCAATCCTCTTATT | 2740
AAAGCGGTAATTTGGTGAGTGGGTGCAGATATCTAT | 5020

Sample 4 — method: protein binding microarray; form: double-stranded DNA, one strand shown; sample: in vitro; tested at: not given; reference: not given; reading: higher = stronger binding
Target: Histone acetyltransferase KAT6A, winged helix 2, GST fusion (KAT6A, Homo sapiens, UniProt Q92794, residues 85-181)
Notes: 8-mer, flanks averaged, mean of 2 arrays, mostly near background
Residues (chain): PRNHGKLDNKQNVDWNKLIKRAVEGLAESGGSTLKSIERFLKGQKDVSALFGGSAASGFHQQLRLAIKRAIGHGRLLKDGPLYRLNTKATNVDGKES
Strand | E-score
AGTTCTCC | -0.0126
CTCACGAC | -0.122
ACGCACCG | -0.0165
AGGGGGCC | 0.0744
AGGCATAA | -0.0428
GCGTTGGA | 0.00781
ACATCTAC | -0.127
ACGGAGGG | 0.053
AATCCAAG | -0.0351
AATTTTCC | 0.142
CCCCATTC | -0.163
AGGGCAGG | 0.195
AATGAATA | -0.194
AGCGATTC | 0.00864
CGACAGAA | 0.0743
ACAATGAG | -0.0645
AGGTACGA | -0.212
AGTCTAAC | -0.235
